Published values pooled from the literature.
Protocols differ between the studies behind these lines. Numbers after ± are the reported error.
dfrA: Dihydrofolate reductase (dfrA, Bacillus anthracis, UniProt Q81R22)
Lethal factor: Lethal factor (Bacillus anthracis, UniProt P15917)

Amino acid sequences for entries named in this document (tags omitted). Chains listed by the source or under a name are the forms on record and can include a tag or linker. Residues count along the entry.
UniProt P08510, 1-655 with tags or gaps DEL6-46: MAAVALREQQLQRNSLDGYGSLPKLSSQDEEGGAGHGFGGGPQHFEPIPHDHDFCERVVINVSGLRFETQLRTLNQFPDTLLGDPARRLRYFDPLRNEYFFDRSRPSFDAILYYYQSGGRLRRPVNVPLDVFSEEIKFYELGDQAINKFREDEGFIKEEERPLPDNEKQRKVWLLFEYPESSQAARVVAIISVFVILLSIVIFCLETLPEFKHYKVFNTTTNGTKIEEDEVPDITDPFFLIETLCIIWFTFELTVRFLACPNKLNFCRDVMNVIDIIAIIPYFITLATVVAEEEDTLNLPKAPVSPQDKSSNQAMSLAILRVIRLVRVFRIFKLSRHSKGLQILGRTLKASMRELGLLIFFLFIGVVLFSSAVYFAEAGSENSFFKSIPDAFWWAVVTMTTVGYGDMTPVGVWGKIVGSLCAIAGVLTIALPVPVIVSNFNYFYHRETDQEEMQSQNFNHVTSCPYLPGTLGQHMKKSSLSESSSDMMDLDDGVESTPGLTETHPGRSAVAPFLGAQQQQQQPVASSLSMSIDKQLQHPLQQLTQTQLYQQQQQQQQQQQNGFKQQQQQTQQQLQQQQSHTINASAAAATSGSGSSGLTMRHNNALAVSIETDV
UniProt Q8I719, whole entry: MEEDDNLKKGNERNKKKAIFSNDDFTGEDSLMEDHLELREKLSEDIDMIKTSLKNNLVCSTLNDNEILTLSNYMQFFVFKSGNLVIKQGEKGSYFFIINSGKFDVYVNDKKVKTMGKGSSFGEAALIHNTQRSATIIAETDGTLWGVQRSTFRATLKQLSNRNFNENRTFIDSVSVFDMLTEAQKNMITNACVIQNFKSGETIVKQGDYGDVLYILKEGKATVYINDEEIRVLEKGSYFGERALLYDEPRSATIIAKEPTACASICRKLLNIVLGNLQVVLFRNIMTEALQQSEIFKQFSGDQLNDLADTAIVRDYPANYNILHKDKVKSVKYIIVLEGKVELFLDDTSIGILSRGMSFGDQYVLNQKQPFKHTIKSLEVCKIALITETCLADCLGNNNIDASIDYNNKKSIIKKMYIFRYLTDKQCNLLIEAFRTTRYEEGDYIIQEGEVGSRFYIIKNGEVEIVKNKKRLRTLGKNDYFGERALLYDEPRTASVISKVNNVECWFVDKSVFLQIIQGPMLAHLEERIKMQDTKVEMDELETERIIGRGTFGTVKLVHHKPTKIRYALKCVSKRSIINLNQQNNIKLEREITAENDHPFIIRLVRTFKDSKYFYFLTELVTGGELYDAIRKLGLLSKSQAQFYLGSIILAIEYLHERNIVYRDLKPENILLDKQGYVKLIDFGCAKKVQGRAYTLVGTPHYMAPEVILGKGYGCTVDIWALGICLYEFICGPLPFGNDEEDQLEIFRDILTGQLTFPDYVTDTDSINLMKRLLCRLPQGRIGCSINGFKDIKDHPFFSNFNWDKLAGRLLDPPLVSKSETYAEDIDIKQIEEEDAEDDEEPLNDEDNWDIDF
UniProt P37136, 32-614 limits assumed: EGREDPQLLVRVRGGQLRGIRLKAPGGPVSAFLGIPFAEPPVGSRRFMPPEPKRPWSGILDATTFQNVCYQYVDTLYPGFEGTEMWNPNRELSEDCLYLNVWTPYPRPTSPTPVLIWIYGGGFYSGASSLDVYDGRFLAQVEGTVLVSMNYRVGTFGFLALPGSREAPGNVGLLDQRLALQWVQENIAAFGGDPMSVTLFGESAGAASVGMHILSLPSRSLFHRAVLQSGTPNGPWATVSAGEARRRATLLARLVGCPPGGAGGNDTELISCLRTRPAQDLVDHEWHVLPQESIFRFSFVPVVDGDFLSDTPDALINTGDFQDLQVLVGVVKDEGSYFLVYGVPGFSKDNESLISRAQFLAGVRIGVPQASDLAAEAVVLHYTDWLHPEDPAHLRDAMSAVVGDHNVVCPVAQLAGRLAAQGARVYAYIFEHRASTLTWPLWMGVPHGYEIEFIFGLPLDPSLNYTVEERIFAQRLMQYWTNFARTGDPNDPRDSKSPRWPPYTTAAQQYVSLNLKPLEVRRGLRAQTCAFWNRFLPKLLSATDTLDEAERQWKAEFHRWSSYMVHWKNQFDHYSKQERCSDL
UniProt P41146, whole entry: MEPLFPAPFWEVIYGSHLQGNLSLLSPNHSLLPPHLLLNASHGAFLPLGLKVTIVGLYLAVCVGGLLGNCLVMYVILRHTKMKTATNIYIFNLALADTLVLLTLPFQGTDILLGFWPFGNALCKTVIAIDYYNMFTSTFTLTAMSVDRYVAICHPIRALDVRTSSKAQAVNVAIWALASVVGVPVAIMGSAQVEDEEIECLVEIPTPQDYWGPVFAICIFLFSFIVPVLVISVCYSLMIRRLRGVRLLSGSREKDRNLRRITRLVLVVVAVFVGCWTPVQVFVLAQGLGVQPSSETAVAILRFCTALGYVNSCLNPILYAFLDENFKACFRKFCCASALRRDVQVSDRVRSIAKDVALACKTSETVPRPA

SMILES	tested on	assay	system	conditions	how to read	quantity	value
Cc1ccc(S(=O)(=O)Nc2cccc(C(=O)NC3CCN(c4ncnc5[nH]cnc45)CC3)c2)cc1Cl	SARS-CoV-2	–	Wuhan-Hu-1	0.09145 µM	relative to: untreated infected cells	relative infection	82.8%
CC[C@H](C)[C@@H]1NC(=O)[C@H](CCCNC(=N)N)NC(=O)[C@@H](N)CSSC[C@@H]2NC(=O)[C@@H]3CSSC[C@@H](C(=O)N[C@H](C(=O)O)C(C)C)NC(=O)[C@H](CCCCN)NC(=O)[C@H](CC(N)=O)NC(=O)[C@H](Cc4ccccc4)NC(=O)[C@H](CCCNC(=N)N)NC(=O)[C@H](CC(N)=O)NC(=O)[C@H](CSSC[C@H](NC(=O)[C@H](CCCCN)NC(=O)[C@H](CCC(N)=O)NC(=O)[C@H](CC(N)=O)NC(=O)[C@@H]4C[C@@H](O)CN4C1=O)C(=O)N[C@@H](Cc1ccccc1)C(=O)N[C@@H](CCC(N)=O)C(=O)N[C@@H](Cc1c[nH]cn1)C(=O)N[C@@H](CC(C)C)C(=O)N[C@@H](CC(=O)O)C(=O)N[C@@H](CC(=O)O)C(=O)N3)NC(=O)[C@H](CCCCN)NC(=O)[C@H](CCCNC(=N)N)NC(=O)[C@H](CO)NC2=O	Sh (Drosophila melanogaster, UniProt P08510, del6-46)	potassium current, two-electrode voltage clamp	Xenopus oocytes	zero voltage	–	Kd	240 ± 30 nM
COc1cc(Cc2cnc(N)nc2N)cc(/C=C/C(=O)N2N=Cc3ccccc3C2C(C)C)c1OC (racemic)	dfrA	inhibitor	–	–	–	Ki	13.2 nM
CS(=O)(=O)C=CCNC(=O)c1ccc2[nH]c(=O)n(C3CC3)c2c1	Polyprotein P1234, nsP2 protease (Chikungunya virus, UniProt Q5XXP4)	time-dependent inhibition	–	–	–	Ki	19000 ± 2000 nM
COc1cc(Cc2cnc(N)nc2N)cc(/C=C/C(=O)N2N=Cc3ccccc3C2CC(C)C)c1OC (racemic)	dfrA	inhibitor	–	–	–	Ki	6.9 nM
CCC1(C2OC(C3OC(O)(CO)C(C)CC3C)CC2C)CCC(C2(C)CCC3(CC(O)C(C)C(C(C)C(OC)C(C)C(=O)O)O3)O2)O1 (stereo not shown)	L/N (Lassa virus, UniProt O09705+P13699)	viral replication, Gaussia luciferase reporter	–	–	–	EC50	270 nM
CC[C@H](C)[C@H](NC(=O)[C@H](C)NC(=O)[C@H](CCC(=O)O)NC(=O)[C@H](CCC(=O)O)NC(=O)[C@H](CC(C)C)NC(=O)[C@H](CCCCN)NC(=O)[C@H](CCCCN)NC(=O)[C@H](CCSC)NC(=O)[C@H](CCC(=O)O)NC(=O)[C@H](Cc1ccc(O)cc1)NC(=O)[C@H](CCC(=O)O)NC(=O)[C@H](CC(C)C)NC(=O)[C@H](CC(=O)O)NC(=O)[C@H](CC(C)C)NC(=O)[C@H](Cc1ccccc1)NC(=O)[C@H](Cc1ccccc1)NC(=O)[C@@H](NC(=O)[C@H](CC(N)=O)NC(=O)[C@@H](NC(=O)[C@H](CCC(N)=O)NC(=O)[C@H](CC(=O)O)NC(=O)[C@H](CC(C)C)NC(=O)[C@@H](N)CO)[C@@H](C)CC)C(C)C)C(=O)N[C@@H](CCCCN)C(=O)N[C@@H](CCCCN)C(=O)N[C@@H](CC(C)C)C(=O)N[C@@H](CCC(=O)O)C(=O)N[C@@H](CCC(=O)O)C(=O)N[C@@H](CO)C(=O)N[C@@H](Cc1ccc(O)cc1)C(=O)N[C@H](C(=O)N[C@@H](CC(=O)O)C(=O)N[C@@H](CC(C)C)C(=O)N[C@@H](CCCCN)C(=O)N[C@@H](CCC(=O)O)C(=O)N[C@@H](CC(C)C)C(=O)O)[C@@H](C)CC	Spike glycoprotein, Beta variant (Severe acute respiratory syndrome coronavirus 2, UniProt P0DTC2)	cell-cell fusion, inhibitor, luciferase fusion	293T donor, Huh-7 target	16 h, 37 °C	–	IC50	122 nM
CCCN(C)Cc1onc(-c2cccc(Cl)c2)c1-c1ccnc(N[C@@H]2CCN(C(=O)c3ccn(C)n3)C2)n1	cGMP-dependent protein kinase (PKG, Plasmodium falciparum, UniProt Q8I719)	kinase activity, inhibitor, IMAP	–	–	–	Ki	23.8 ± 7.7 nM
Cc1cc(S(=O)(=O)N[C@@H](C(=O)NO)C2CCOCC2)ccc1F (single isomer, unassigned)	Lethal factor	enzyme activity, inhibitor	–	–	–	Ki	46 nM
O=C(/C=C/c1ccc(O)cc1)/C(C(=O)Nc1ccccc1)=C(O)/C=C/c1ccc(O)cc1	Lethal factor	enzyme activity, non-competitive inhibitor	–	apparent	–	Ki	34500 nM
COc1cc(Cc2cnc(N)nc2N)cc(/C=C/C(=O)N2N=Cc3ccccc3[C@@H]2C=C(C)C)c1OC	dfrA	inhibitor	–	–	–	Ki	4.4 nM
CCOP(=O)(OCC)ON1C(=O)c2cccc3cccc(c23)C1=O	Ache (Rattus norvegicus, UniProt P37136)	enzyme activity, inhibitor	rat, postnatal day 12, rat brain homogenate	15 min, 37 °C	–	IC50	75 nM
CC(C)[C@H]1CC[C@@H](N2CCC3(CC2)C(=O)NCN3c2ccccc2)CC1	Nociceptin receptor (OPRL1, Homo sapiens, UniProt P41146)	calcium mobilization	CHO with Gαqi5	–	relative to: compound over N/OFQ EC50	concentration ratio	10
Cc1ccc(OCCN(C)C)cc1C(=O)N[C@H](C)c1cc(-c2cnn(CCO)c2)cc(-c2cnn(CCO)c2)c1	Replicase polyprotein 1ab, papain-like protease (rep, Severe acute respiratory syndrome coronavirus 2, UniProt P0DTD1)	protease activity, inhibitor	FlipGFP reporter cells	–	–	EC50	> 10000 nM
O=C(NC1CCN(c2ncnc3[nH]cnc23)CC1)c1cccc(NS(=O)(=O)c2ccc(Cl)cc2)c1	SARS-CoV-2	–	Wuhan-Hu-1	66.67 µM	relative to: untreated infected cells	relative infection	19.3%
CC[C@H](C)[C@@H]1NC(=O)[C@@H]2CSSC[C@H](NC(=O)[C@H](CCCNC(=N)N)NC(=O)[C@@H]3CSSC[C@H](NC1=O)C(=O)N[C@@H]([C@@H](C)O)C(=O)N[C@@H](CCCNC(=N)N)C(=O)NCC(=O)N[C@@H](Cc1ccccc1)C(=O)N3)C(=O)N[C@@H](CC(C)C)C(=O)N[C@H]1CSSC[C@H](NC(=O)[C@H](C(C)C)NC(=O)CNC(=O)[C@H](CCCNC(=N)N)NC(=O)[C@H](CCCNC(=N)N)NC1=O)C(=O)N[C@@H](CCCNC(=N)N)C(=O)N2	Lethal factor	enzyme activity, inhibitor	–	–	–	Ki	381 ± 21 nM

Some of these lines once more:
SMILES	tested on	assay	system	conditions	how to read	quantity	value
COc1cc(Cc2cnc(N)nc2N)cc(/C=C/C(=O)N2N=Cc3ccccc3C2CC(C)C)c1OC (racemic)	dfrA	inhibitor	–	–	–	Ki	6.9 nM
